Measured values gathered from unrelated publications.
Each line is one published result; not all experiments were run side by side. “And” joins repeats or separate records; there may be more than shown. pEC50: −log10 of the molar value.
Organism: Bacillus subtilis

Structure (SMILES) = CN(C)[C@@H]1C(O)=C(C(N)=O)C(=O)[C@@]2(O)C(O)=C3C(=O)c4c(O)cccc4[C@@](C)(O)[C@H]3C[C@@H]12; assay = bacterial cytological profiling; system = ATCC 6633; conditions = concentration not given; quantity = cell width; result = 0.89 µm and 0.92 µm
Structure (SMILES) = C[C@H](N)C(=O)O; assay = chemotaxis pathway, FRET; system = 168; quantity = pEC50; result = 5.92
Structure (SMILES) = COc1cc(C=O)ccc1OC1=C(Cl)C(=O)c2ccccc2C1=O; system = MTCC 1427; conditions = 10 µg/mL; quantity = zone of inhibition; result = 15 mm
Structure (SMILES) = N[C@@H](CCC(=O)O)C(=O)O; assay = chemotaxis pathway, FRET; conditions = 168; quantity = pEC50; result = < 3.00
Structure (SMILES) = CC(=O)OCC1=C(C(=O)O)N2C(=O)[C@@H](NC(=O)Cc3cccs3)[C@H]2SC1; assay = broth microdilution; system = ATCC 35021; quantity = MIC; result = 6.25 µg/mL
Structure (SMILES) = CC1(C)S[C@@H]2[C@H](NC(=O)[C@H](N)c3ccc(O)cc3)C(=O)N2[C@H]1C(=O)O; assay = broth microdilution; system = MTCC 1427; quantity = MIC; result = 10 µg/mL
Structure (SMILES) = CO[C@H]1/C=C/O[C@@]2(C)Oc3c(C)c(O)c4c(O)c(c(/C=N/N5CCN(C)CC5)c(O)c4c3C2=O)NC(=O)/C(C)=C\C=C\[C@H](C)[C@H](O)[C@@H](C)[C@@H](O)[C@@H](C)[C@H](OC(C)=O)[C@@H]1C; assay = bacterial cytological profiling; system = ATCC 6633; conditions = concentration not given; quantity = cell perimeter; result = 4.95 µm and 5.03 µm and 4.91 µm
Structure (SMILES) = CC1CCC(C(C)C)C(OC2=C(Cl)C(=O)c3ccccc3C2=O)C1 (stereo not shown); assay = broth microdilution; system = MTCC 1427; quantity = MIC; result = 12 µg/mL
Structure (SMILES) = N[C@@H](Cc1ccc(O)cc1)C(=O)O; assay = chemotaxis pathway, FRET; system = 168; quantity = pEC50; result = 4.53
Structure (SMILES) = O=C1C(Cl)=C(n2cncn2)C(=O)c2ccccc21; system = MTCC 1427; conditions = 10 µg/mL; quantity = zone of inhibition; result = 14 mm
Structure (SMILES) = CC1=N/C(=C\c2cc(F)c(O)c(F)c2)C(=O)N1C; assay = cytoplasmic accumulation, flow cytometry; quantity = lowest detectable concentration; result = 100 nM
Structure (SMILES) = COc1ccc(N2N=C(C(=O)c3ccc(Nc4cnccn4)cc3)SC2=C(C#N)C#N)cc1; assay = broth microdilution; system = ATCC 35021; quantity = MIC; result = 3.12 µg/mL
Structure (SMILES) = CC1(C)S[C@@H]2[C@H](NC(=O)[C@H](N)c3ccccc3)C(=O)N2[C@H]1C(=O)O; assay = bacterial cytological profiling; system = ATCC 6633; conditions = concentration not given; quantity = cell width; result = 0.95 µm and 0.85 µm and 0.89 µm
Structure (SMILES) = N[C@@H](CO)C(=O)O; assay = chemotaxis pathway, FRET; system = 168; quantity = pEC50; result = 5.59
Structure (SMILES) = CC[C@H](C)CCCCC(=O)N[C@@H](CCN)C(=O)N[C@H](C(=O)N[C@@H](CCN)C(=O)N[C@H]1CCNC(=O)[C@H]([C@@H](C)O)NC(=O)[C@H](CCN)NC(=O)[C@H](CCN)NC(=O)[C@H](CC(C)C)NC(=O)[C@@H](CC(C)C)NC(=O)[C@H](CCN)NC1=O)[C@@H](C)O; assay = broth microdilution; system = 168, cation-adjusted Mueller-Hinton broth; conditions = 20 to 24 h, 37 °C, 0.002% polysorbate 80; quantity = MIC; result = 8 µg/mL
Structure (SMILES) = CC(C)C[C@H](N)C(=O)O; assay = chemotaxis pathway, FRET; system = 168; quantity = pEC50; result = 5.74
Structure (SMILES) = COc1ccc(-n2nc(C(=O)c3ccc(Nc4cnccn4)cc3)sc2=N)cc1; assay = broth microdilution; system = ATCC 35021; quantity = MIC; result = 12.5 µg/mL
Structure (SMILES) = O=C(O)c1cn(C2CC2)c2cc(N3CCNCC3)c(F)cc2c1=O; assay = bacterial cytological profiling; system = ATCC 6633; conditions = concentration not given; quantity = cell perimeter; result = 13.6 µm and 14.6 µm and 13.3 µm
Structure (SMILES) = CSCC[C@H](N)C(=O)O; assay = chemotaxis pathway; quantity = pEC50; result = 5.41
Structure (SMILES) = CC(=O)C1=NN(c2ccc([N+](=O)[O-])cc2)C(=C(C#N)C(=O)c2ccc(Nc3cnccn3)cc2)S1; assay = broth microdilution; system = ATCC 35021; quantity = MIC; result = 3.12 µg/mL
Structure (SMILES) = COc1cccc2c1C(=O)c1c(O)c3c(c(O)c1C2=O)C[C@@](O)(C(=O)CO)C[C@@H]3O[C@H]1C[C@H](N)[C@H](O)[C@H](C)O1; assay = bacterial cytological profiling; system = ATCC 6633; quantity = cell width; result = 0.85 µm and 0.87 µm and 0.88 µm
Structure (SMILES) = CN[C@H](CC(C)C)C(=O)N[C@H]1C(=O)N[C@@H](CC(N)=O)C(=O)N[C@H]2C(=O)N[C@H]3C(=O)N[C@H](C(=O)N[C@H](C(=O)O)c4cc(O)cc(O)c4-c4cc3ccc4O)[C@H](O)c3ccc(c(Cl)c3)Oc3cc2cc(c3O[C@@H]2O[C@H](CO)[C@@H](O)[C@H](O)[C@H]2O[C@H]2C[C@](C)(N)[C@H](O)[C@H](C)O2)Oc2ccc(cc2Cl)[C@H]1O; assay = broth microdilution; system = 168, cation-adjusted Mueller-Hinton broth; quantity = MIC; result = 0.168 µM

For quick reference, copied from above:
Structure (SMILES) = COc1ccc(N2N=C(C(=O)c3ccc(Nc4cnccn4)cc3)SC2=C(C#N)C#N)cc1; assay = broth microdilution; system = ATCC 35021; quantity = MIC; result = 3.12 µg/mL
Structure (SMILES) = CC1(C)S[C@@H]2[C@H](NC(=O)[C@H](N)c3ccccc3)C(=O)N2[C@H]1C(=O)O; assay = bacterial cytological profiling; system = ATCC 6633; conditions = concentration not given; quantity = cell width; result = 0.95 µm and 0.85 µm and 0.89 µm
Structure (SMILES) = N[C@@H](CO)C(=O)O; assay = chemotaxis pathway, FRET; system = 168; quantity = pEC50; result = 5.59
Structure (SMILES) = CC[C@H](C)CCCCC(=O)N[C@@H](CCN)C(=O)N[C@H](C(=O)N[C@@H](CCN)C(=O)N[C@H]1CCNC(=O)[C@H]([C@@H](C)O)NC(=O)[C@H](CCN)NC(=O)[C@H](CCN)NC(=O)[C@H](CC(C)C)NC(=O)[C@@H](CC(C)C)NC(=O)[C@H](CCN)NC1=O)[C@@H](C)O; assay = broth microdilution; system = 168, cation-adjusted Mueller-Hinton broth; conditions = 20 to 24 h, 37 °C, 0.002% polysorbate 80; quantity = MIC; result = 8 µg/mL
